Measurements collected from several papers.
Compare with care: the assays were run in different laboratories. Several values in a cell are separate wells, animals, samples, runs or records. ± gives the spread as reported.

`O=C(Nc1cc(OCCN2CCCC2)c2ccccc2n1)c1cc(OCc2ccc(F)cc2)cc(C(=O)Nc2cc(OCCN3CCCC3)c3ccccc3n2)n1` gave a selectivity ratio of 1.3 (HT-1080; cell viability, CellTiter-Glo; 72 h; reference: IC50 HT-1080 over WI-38).
`Cn1cc(-c2ccc(-c3cncc(Cl)c3N3CCC4(CCNC4=O)CC3)cc2)cn1` — result for “log2 fold change”: 3.2 (COLO 205; gene expression, microarray, refers to: NRP1 mRNA; concentration not given, 2 h; reference: untreated cells).
`Cc1cccc(-c2[nH]c(CNc3ccccc3F)nc2-c2ccc3ncnn3c2)n1` gave a viability of 96% (bone marrow CD138+ myeloma cells; XTT; 0.4 µM, mean of three patients).
For `CCOC(=O)C1=C(C)NC2=C(C(=O)OC(c3ccc(Cl)c(OC)c3)C2)C1c1ccc(Cl)cc1C` (stereo not shown), the EC50 was > 20 µM (J774.A1; cytotoxicity).
For `C[C@H]1CN(C2COC2)CCN1c1ccc(Nc2cc(-c3ccnc(N4CCn5c(cc6c5CC(C)(C)C6)C4=O)c3CO)cn(C)c2=O)nc1`, the maximum inhibition was 65.5% (TMD8; calcium flux, FLIPR; 2 h preincubation, together with: anti-IgM).
`O=C(/C=C/C=C/C=C/C1CCCCC1)NC1=C[C@@](O)(/C=C/C=C/C=C/C(=O)NC2=C(O)CCC2=O)[C@@H]2O[C@@H]2C1=O` has a GI50 of 8.87 µM (MKN-1; cell growth, CellTiter-Glo; 78 h).
`CCCCC[C@H](O)/C=C/[C@H]1C(=O)C[C@H](O)[C@@H]1C/C=C\CCCC(=O)O` — result for “HTRF cAMP signal”: 318 a.u. and 310 a.u. and 313 a.u. (HEK293-A2AR cells, SLCO2A1 knockout; HTRF cAMP; 100 pM).
`C=Cc1c2[n-]c(c1C)/C=c1\[n-]/c(c(C)c1C=C)=C\c1[n-]c(c(CCC(=O)O)c1C)/C=c1\[n-]c(c(C)c1CCC(=O)O)=C2.[Sn+4]` has a fold change of 1.98 (SH-SY5Y; RNA-seq, refers to: THBS1 mRNA; 5 µM, 5 h; reference: untreated cells).
`COc1cccc2c1C(=O)c1c(O)c3c(c(O)c1C2=O)C[C@@](O)(C(=O)CO)C[C@@H]3O[C@H]1C[C@H](N)[C@H](O)[C@H](C)O1` — result for “point of departure”: 0.2 µM (HepG2; refers to: glutathione; 6 h, distribution mode 2).
`C[C@H](Nc1ccc2c(c1)OCCn1cc(N3C(=O)OC[C@H]3C(F)F)nc1-2)C(N)=O` has an IC50 of 10 µM (KYSE-510; growth rate inhibition, CellTiter-Glo; 120 h).
`CCn1cc(-c2cc(Cn3ccnc3)cc3c2CCN([C@H](c2cc(OC)ccn2)C2CC2)C3=O)c(C(F)(F)F)n1` has an EC50 of > 30 µM (HCC1833; cell growth; 120 h).
For `CN(C)c1ncnc2c1ncn2[C@@H]1O[C@H](CO)[C@@H](O)[C@H]1O`, the AP-TGFα release was 12.4% and 11.7% and 9.29% (mock-transfected cells; TGFα shedding, agonist; 10 µM; reference: unstimulated vehicle control).
`COc1cccc2c1C(=O)c1c(O)c3c(c(O)c1C2=O)C[C@@](O)(C(=O)CO)C[C@@H]3O[C@H]1C[C@H](N)[C@H](O)[C@H](C)O1` has an Emax of 96.1% (A2780 cisplatin-resistant; cytotoxicity, WST-1; 72 h, highest tested concentration).
For `C=CC(=O)N1CCC[C@@H](c2ccc(C(N)=O)c3[nH]ccc23)C1`, the maximum inhibition was 17.4% (TMD8; calcium flux, FLIPR; 2 h preincubation, together with: anti-IgM).
`Cc1nn(-c2nc3c(F)cc(F)cc3s2)c(O)c1C(c1ccccc1C(F)(F)F)c1c(C)nn(-c2nc3c(F)cc(F)cc3s2)c1O` has an inhibition of -4.66% and -2.19% and -11.3% and -12.7% and -5.13% (THP1-Dual; IFN luciferase reporter; 2.5 µM, together with: HT-DNA).
`Cc1cc(Nc2ncc(Cl)c(Nc3ccccc3S(=O)(=O)C(C)C)n2)c(OC(C)C)cc1C1CCNCC1`: “log2 fold change” -4.9 (CLB-BAR; phosphoproteomics LC-MS/MS, refers to: MAPK1 phosphorylation; 200 nM, 60 min; reference: untreated).
The inhibition of `FC(F)c1nc2ccccc2n1-c1nc(N2CCOCC2)nc(N2CCOCC2)n1` is reported as 40% (HEK293T (G4C2)66-No-ATG-GFP reporter; RAN translation of r(G4C2)exp, fluorescence reporter; concentration not given).
With `O=C(COP(=O)(O)O)[C@@H](O)[C@H](O)[C@H](O)COP(=O)(O)O` the glucose consumption was 4.58 mM and 4.62 mM (HepG2 control sgRNA; concentration not given).
With `Cc1nn(-c2nc3c(F)cc(F)cc3s2)c(O)c1C(c1ccc(C(F)(F)F)cc1)c1c(C)nn(-c2nc3c(F)cc(F)cc3s2)c1O` the phospho-TBK1/TBK1 ratio was 1.08 and 1.1 (RAW-ISG; TBK1 phosphorylation, western blot; 10 µM, together with: poly(I:C); reference: DMSO).
`CC(C)C[C@@H](C=O)NC(=O)[C@H](CC(C)C)NC(=O)[C@H](CC(C)C)NC(=O)OCc1ccccc1` has an EC50 of 0.158 µM (BRD4-HiBiT cells; BRD4 degradation rescue, inhibitor; 24 h, 50% degradation rescued, together with: dBET6 500 nM).
The inhibition of `Cc1nn(-c2nc3c(F)cc(F)cc3s2)c(O)c1C(c1cccc(C(F)(F)F)c1)c1c(C)nn(-c2nc3c(F)cc(F)cc3s2)c1O` is reported as 101% (THP1-Dual; IFN luciferase reporter; 80 µM, together with: HT-DNA).
`O=P(O)(O)C(O)(Cn1ccnc1)P(=O)(O)O` gave a viability of 100 ± 2% (hFOB 1.19; AlamarBlue; 3.8 µM, 48 h; reference: control).
`CC(C)=CCNc1ncnc2c1ncn2[C@@H]1O[C@H](CO)[C@@H](O)[C@H]1O` gave an AP-TGFα release of 2.29% and 1.76% and 0.06% (mock-transfected cells; TGFα shedding, agonist; 1 µM; reference: unstimulated vehicle control).
For `CC[C@H](C)[C@H](NC(=O)[C@H](CCC(N)=O)NC(=O)CNC(=O)[C@H](Cc1c[nH]cn1)NC(=O)[C@H](CCCCN)NC(=O)[C@H](Cc1c[nH]cn1)NC(=O)[C@H](Cc1c[nH]cn1)NC(=O)CN)C(=O)N[C@@H](CCSC)C(=O)N1CCC[C@H]1C(=O)N[C@@H](CCSC)C(=O)N[C@@H](CO)C(=O)NCC(=O)NCC(=O)NCC(=O)N[C@@H](CO)C(=O)N[C@@H](CCCCNC(=O)CCCC[C@@H]1SC[C@@H]2NC(=O)N[C@@H]21)C(=O)O`, binding read “no binding” (K562 (EphA2-negative); confocal microscopy; 10 µM, 20 min, 37 °C, biotin-labelled peptide).
`COC1=CC(=O)C=C(OC)C1=O` has a viability of 6.45% and 10.8% (MDA-MB-231 BAX/BAK siRNA knockdown; CellTiter-Glo; concentration not given; reference: normalised luminescence).
Under “TAZ band intensity”, `CC/C(=N\NC(=O)C(C)Nc1ccccc1)c1ccc(O)c(C)c1O` (stereo not shown) is recorded as 0.34 ± 0.05 (SK-OV-3; Western blot; 10 µM, 6 h, 2D culture, unit not given; reference: DMSO).
`CCc1cnc(N2CCC(c3nc(COc4ccc(-n5cnnn5)cc4)cs3)CC2)nc1`: “normalized enrichment score” -1.63 (HEK-293T; RNA-seq GSEA, refers to: HALLMARK_UV_RESPONSE_UP; concentration not given; direction not given).
With `NCCCOc1cc(NC(=O)c2cc(OCCN)cc(C(=O)Nc3cc(OCCCN)c4ccccc4n3)n2)nc2ccccc12` the selectivity ratio was 1.6 (HT-1080; cell viability, CellTiter-Glo; 72 h; reference: IC50 HT-1080 over WI-38).
`COc1cnc2cccc(N3CCc4c(cc(Cn5ccnc5C)cc4-c4cn(C)nc4C(F)(F)F)C3=O)c2c1` gave an EC50 of > 30 µM (YD-10B; cell growth, inhibitor; 120 h).
With `C#C[C@@]1(O)[C@@H](CO)O[C@@H](n2ccc3c(N)ncnc32)[C@@H]1O` the TGI was 3.49 µM (MDA-MB-435; SRB; NCI-60 screen).
For `Cn1cc(Nc2nccc(-c3ccc4c(c3)CN(C3COC3)CC[C@H]4NC(=O)c3cn(C(C)(C)C)nn3)n2)cn1`, “number of upregulated genes” read 574 (human B cells; 100 nM, 64 h, non-stimulation-regulated genes, together with: anti-IgM).
For `Cc1cnc(NC2CCOCC2)nc1-n1cnc(C(=O)NC(CN)c2cc(F)cc(Cl)c2)c1` (stereo not shown), “G2 phase cells” read 6.6% (MINO; flow cytometry; 1 µM, 48 h).
For `CCOC(=O)C1=C(C)NC2=C(C(=O)OC(c3ccc(OC)c(OC)c3)C2)C1c1cccc2ccccc12` (stereo not shown), the EC50 was > 20 µM (J774.A1; cytotoxicity).
Under “mean neuron degeneration”, `C=CC(=O)N1[C@@H](c2ccc3c(c2)OCO3)c2[nH]c3ccccc3c2C[C@H]1C(=O)NC` is recorded as 74.5% (rat DRG neurons; 0.1235 µM, 48 h, together with: vincristine 40 nM).
For `CCOC(=O)C1=C(C)NC2=C(C(=O)OC(c3ccc(Cl)cc3)C2)C1c1ccccc1Cl` (stereo not shown), the EC50 was > 20 µM (J774.A1; cytotoxicity).
With `CC/C(=N\NC(=O)NCc1cccc(O)c1)c1ccc(O)c(C)c1O` the log ratio was 3.37 (SK-OV-3; gene expression, microarray, refers to: CLDN1; 10 µM, 24 h; reference: DMSO).
`O=C(C[C@@H](C(F)F)n1ccc(F)n1)N1CCC(O)(Cn2cnc3c(cnn3-c3ccc(F)cc3)c2=O)CC1` gave an apoptotic cells of 9.59% and 13% and 10.1% (CHP-212 resistant subline R3; annexin V/PI flow cytometry; 0.3 µM, 48 h).
For `CCn1cc(-c2cc(Cn3ccoc3=N)cc3c2CCN([C@@H](C)c2cc(OC)ccn2)C3=O)c(C(F)(F)F)n1`, the EC50 was > 30 µM (YD-10B; cell growth, inhibitor; 120 h).
`CCOC(=O)CSc1nc(-c2ccc(Cl)cc2)c2c(NC(=O)c3ccccc3)nnc-2[nH]1` has a cell growth of 98.8% (MDA-MB-435; SRB; 10 µM, NCI60 single-dose screen; reference: untreated).
For `CC1=CC[C@H]2[C@@H]([C@@H]1CC[C@H]1[C@]3(C)CC[C@H](O)C(C)(C)O[C@H]3CC[C@]1(C)O)C(C)(C)CC[C@]2(C)O`, intracellular [3H]-paclitaxel read “no effect” (KB-3-1; 10 µM).
For `NS(=O)(=O)OC[C@H]1C[C@@H](Nc2ccnc3cc(-c4cccc(SC(F)(F)F)c4)nn23)[C@H](O)[C@@H]1O`, the EC50 was 0.379 µM (BRD4-HiBiT cells; BRD4 degradation rescue, inhibitor; 4 h, 50% degradation rescued, together with: dBET6 500 nM).
The EC50 of `CCOC(=O)C1=C(c2ccccc2)NC2=C(C(=O)CC(c3ccc(OC)c(OC)c3)C2)C1c1ccccc1Cl` (stereo not shown) is reported as > 20 µM (J774.A1; cytotoxicity).
`C=CC1=C(C)c2cc3[n-]c(cc4nc(cc5[n-]c(cc1n2)c(C)c5C=C)C(C)=C4CCC(=O)O)c(CCC(=O)O)c3C.[Zn+2]` gave a fold change of 1.63 (SH-SY5Y; RNA-seq, refers to: FAM83G mRNA; 5 µM, 5 h; reference: untreated cells).
`O=C(CCCCCCC(=O)Nc1ccccc1)NO` gave a Z score of -0.298 (MDA-MB-231 BAX/BAK siRNA knockdown; cell viability, CellTiter-Glo; direction not given).
The toxicity of `COc1ccc(-n2nc(C(C)=O)s/c2=N\N=C(/C)c2ccc(NC(=O)c3ccc(Cl)cc3)cc2)cc1` is reported as 15.2% (MCF7; 0.078 µM).
For `CC(C)NCC(O)c1ccc(O)c(O)c1` (stereo not shown), the sarcomere length was 1.75 µm (mouse ventricular cardiomyocytes; dose not given, 0.423 s).
The Emax of `C[C@@H]1CN(C(=O)c2ccc(NC(=O)c3cc(O[C@H](C)c4c(Cl)ccc(F)c4Cl)c(N)nn3)cc2)C[C@H](C)N1` is reported as 99.5% (Ba/F3 EML4-ALK v1, no mutation; cell viability).
The EC50 of `CC(C)C[C@H](NC(=O)[C@H](Cc1ccccc1)NC(=O)c1cnccn1)B(O)O` is reported as 0.0236 µM (BRD4-HiBiT cells; BRD4 degradation rescue, inhibitor; 24 h, 50% degradation rescued, together with: dBET6 500 nM).
`Cc1nc(NC(=O)N2CCC[C@H]2C(N)=O)sc1-c1ccnc(C(C)(C)C(F)(F)F)c1`: “Hill coefficient GR curve” 1.52 (MKN-1; CellTiter-Glo; 120 h).
